Results collected from several papers.
Parts stem from different laboratories: compare values within a part only.

Set 1
Target: Hepatocyte nuclear factor 3-alpha (Foxa1, Mus musculus, UniProt P35582, residues 1-468, full length assumed)
Chain of UniProt P35582 (whole entry, looked up): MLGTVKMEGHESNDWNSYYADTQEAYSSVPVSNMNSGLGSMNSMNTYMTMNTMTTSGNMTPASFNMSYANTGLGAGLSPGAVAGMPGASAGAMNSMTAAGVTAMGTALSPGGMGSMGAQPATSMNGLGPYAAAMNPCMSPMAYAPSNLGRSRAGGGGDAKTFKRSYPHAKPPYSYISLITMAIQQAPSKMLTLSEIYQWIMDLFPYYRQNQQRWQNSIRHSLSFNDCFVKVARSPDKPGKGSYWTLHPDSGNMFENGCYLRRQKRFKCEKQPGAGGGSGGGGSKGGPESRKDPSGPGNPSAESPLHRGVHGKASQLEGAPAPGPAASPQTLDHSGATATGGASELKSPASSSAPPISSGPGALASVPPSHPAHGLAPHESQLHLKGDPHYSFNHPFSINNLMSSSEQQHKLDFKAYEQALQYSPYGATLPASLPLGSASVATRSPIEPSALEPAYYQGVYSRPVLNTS
Method: EMSA with sequencing
Form: double-stranded DNA, one strand shown
Medium: in vitro
Concentration: 10 and 20 nM
Setting: whole designed probe, mean of two concentrations, ends assumed
Reference: negative control set to 0
Reading: higher = stronger binding
Oligonucleotide	normalised bound fraction [ratio]
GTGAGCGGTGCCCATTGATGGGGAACGTGTGCTAGCCTGTGAGTTTTTCTCTCCAACTAGCCTGGGTACTCAGGAAAGTGAGATCAACTTCTGGGTTTGGGTGTAGCGGCCTGACCTGTGCAAATAGGGGAGACAGTTGACATACAGATGAAAGGGGAGATGGGAAGCCATACAGAGGAAGGAGAAGATCAGGAACCAGAGATAAGATAATTCTGTAAATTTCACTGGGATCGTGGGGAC	0.263
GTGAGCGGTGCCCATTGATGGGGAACCTTGATAAGATTGAGCTTCCAGCAGAATGTAAATGCATCTGCTAACAGCAACCAGGCTTTGTCCCAAAACAGTAGTGAATCAGAATCTGCACAGTAATTTTTGCAGTTAATTTCCTCTCCTGTACTTATGACTCACAGGCCTTTCTTTACGTTCACAGTTTCATAGAAATTGGCAAATACTTCTTGACACTGATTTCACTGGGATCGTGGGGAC	-0.0236
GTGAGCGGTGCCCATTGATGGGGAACGGGTCCCGGGCGGCGGCAGGAATGCAGGAATGCGCACAGGCTGTGGGCGGCCAGGAGGGAGTCCCGGCGCCTGCCGGCGGAAGTGCCAGTCTTTGTGTACCCTGTCCAACACCTCCCCCCGCCAGCGCGGAAGGCCGGGCTACCTGCGCGCCTGGCAGCGCCTGGCAGCCGGCTGGGTGGGGCGCAGGGGAGCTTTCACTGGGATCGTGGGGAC	0.0187
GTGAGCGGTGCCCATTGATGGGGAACTGGCTGGCATCAAGGACTTTGGCTCTGGGGGTGTTCCCAGTCAACAGTTAACTAAAGACCAGGCCACTGTGCCTAGACTGTTTGTGCATTTGTGCAATCTATATGGGTTCATGCTGAACACCTGCGTTCCTTCTGAGAGTCTGAAAAGTTTAGAACATGCCAGGCAGAGGGTGTGTACCTGACCAACCCCCAATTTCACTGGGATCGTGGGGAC	0.00182
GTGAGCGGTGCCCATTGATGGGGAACAAGATATGATTATTATACGTGTGTCTGTTTTTATATAGAATTTGTTAGAAGTCTCTAGTACACCATACCAGAAAAAGTTTAGCTAAAACAAAGTAATCTTGAAATATTGCAAAGAAAACCAATAGAAACTTAACAGAATAAATAATATTTATTTTCCAGAATAAAGACACAATATAAGTGAAGCTTCAAATTTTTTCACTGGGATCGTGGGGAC	0.29

Set 2
Target: RNA binding protein fox-1 homolog 2, RRM domain, GST-SBP tag (RBFOX2, Homo sapiens, UniProt O43251-10, residues 100-194)
Method: RNA Bind-n-Seq
Form: RNA
Medium: in vitro
Concentration: 365 nM
Setting: natural RNA segment, single round, ends assumed
Reference: no-protein control
Reading: higher = stronger binding
Residues (chain): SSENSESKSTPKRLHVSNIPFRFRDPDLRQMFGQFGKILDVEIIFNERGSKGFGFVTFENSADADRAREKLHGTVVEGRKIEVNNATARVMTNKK
Oligonucleotide	RBNS enrichment (R)
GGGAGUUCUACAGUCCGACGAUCCUUUUGUAAAGAAUCCUUUUGUAAUGCAAACCAAUUAUCCCUGAAGGUAUCUGUUUUGUAAGUUUGGAUUUUUGUAUAUCUGGUUUAUCUUAAGCUUCUCUACUGAGGCAUGGAAUUCUCGGGUGCCAA	0.377
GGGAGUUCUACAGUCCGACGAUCGUCUGAUUUGUCUUUUUAUUUCAUGAUGCAUGUCUUUUUUUUCUUUUGUCAGGAUAACGUCAUAUAGCAUCUUGUUUGUUUUUCCUUAUCUCUAUGUACAUAUCUAUCUAUGGAAUUCUCGGGUGCCAA	7.05
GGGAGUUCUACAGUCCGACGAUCUGGCGUGACUGACGGCUGAGGCCUGCCUCUCCUUCCCAAGCCCCCUUCCUUCAUCCUUGGGGGUCUCAGGCUGCCCCCAUCAUGGGGGUCUGGGCCCUGCCCACCCUCCUUGGAAUUCUCGGGUGCCAA	0.242
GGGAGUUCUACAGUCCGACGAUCGGGCAGCUGGAGGGUAGGCUCAGAAAUGAAGGGAACCCCUCAGUGGGCUGCUGGACCCAUCUUUCCCAAGCCUUGCCAUUAUCUCUGUGAGGGAGGCCAGGUAGCCGAGGUGGAAUUCUCGGGUGCCAA	0.529
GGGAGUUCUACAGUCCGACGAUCACAUUUGGCCAUAUUGGUGCUGCUGUACCAUAGUGUAGACUUUUACAGCUGUGAGGGUGGCUAUUGAGUUCCUUCCAGUGUCUCAAGUCACAGGUGUGUGCAGUUGUGAAUGGAAUUCUCGGGUGCCAA	0.429
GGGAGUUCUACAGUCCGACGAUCUCUGGGGACAGCAUACACUUCUUCCCCAGCUCAGUAAUGGGUGAAGUCACUUCCGGAGGUGGUCACCUCAUAGAAUGAACAUGAUUGGUUACUGAGGGAGCCAGGCUCUGUGGAAUUCUCGGGUGCCAA	0.551
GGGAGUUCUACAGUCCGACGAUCCCAGGCAGGGACAGGUUGCCUGUGGCCCCCUCAAUCUGAGGUGCACCCCUUGGGCUAUGGACCCCAUUCCCUUGCCAUCACCCCCGCCAGUGGGUCUGCUUCACUGUGGAUGGAAUUCUCGGGUGCCAA	0.57
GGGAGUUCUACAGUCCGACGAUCUUUAGAUUUCCCACAUGGAUGGUUUGAGACUAGAGAAAUACUUUUCUCUAGUUCGUUGGUUUUUAACAUGAAGGUGUCUUUGGGGAGGACCUGGAUCAUGCUACCUGUGUUGGAAUUCUCGGGUGCCAA	0.976
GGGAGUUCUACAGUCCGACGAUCCAAGUCUGCCCUGUUUUUUUAAUUCUUUAUUCUUGUGACAGCAUUUUUGGACGUUGGAAGAGCUCAGAAGCCCAUCUUCUGCAGUUACCAAGGAAGAAAGAUCGUUCUGAUGGAAUUCUCGGGUGCCAA	0.514
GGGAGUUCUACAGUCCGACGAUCAUAUAUACAGACCUAAAUUUUAAAAUCUGUACAUAUAUUAUUUUGAUGUAUUAAGAUUGAUAAUAUUGCUGAUUUAAAUUUUAUUUAUGCACAUACUUAAAGGACAGAAAUGGAAUUCUCGGGUGCCAA	0.578
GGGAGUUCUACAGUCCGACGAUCGAUAUGCCUUGUAGCCAAAGUAUUAAAGGCUGAUGAACAUAGACAAGGGAAAUGCAUUUCUUAGAAAUCCGUGAACCCUCAGUUGUAUGCUUUCAGUACUCGUGUUAAUAUGGAAUUCUCGGGUGCCAA	0.361
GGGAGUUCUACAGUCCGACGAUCGUUUUGUGUAACUCCCAGUGAUGCUGUACACAUAUUUGAAGGGUCUUUCUCAAAGAAAUAUUAAGCAUGUUUUGUUGCUCAGUGUUUUUGUGAAUUGCUUGGUUGUAAUUUGGAAUUCUCGGGUGCCAA	1.91

Set 3
Target: RING finger protein unkempt homolog, zinc fingers 1-6, SBP tag (UNK, Homo sapiens, UniProt Q9C0B0, residues 30-357)
Chain of UniProt Q9C0B0 (30-357, looked up): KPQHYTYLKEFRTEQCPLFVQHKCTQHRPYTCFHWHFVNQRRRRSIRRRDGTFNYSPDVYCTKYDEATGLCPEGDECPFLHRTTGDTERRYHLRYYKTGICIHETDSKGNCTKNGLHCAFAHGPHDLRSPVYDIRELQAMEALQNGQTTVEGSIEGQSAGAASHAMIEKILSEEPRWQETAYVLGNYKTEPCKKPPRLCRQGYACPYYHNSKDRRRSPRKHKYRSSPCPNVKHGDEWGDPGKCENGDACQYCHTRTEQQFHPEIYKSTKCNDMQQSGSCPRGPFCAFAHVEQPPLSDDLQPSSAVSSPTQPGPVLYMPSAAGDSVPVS
Method: RNA Bind-n-Seq
Form: RNA
Medium: in vitro
Concentration: 100 nM
Setting: RNA with constant flanks, vertebrate orthologous sites, ends assumed
Reference: input RNA pool
Reading: higher = stronger binding
Oligonucleotide	bound/input enrichment [ratio]
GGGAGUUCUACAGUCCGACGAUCUUACAGUCAUUGAUGGACUCUAUUUUUUUAUUAUUACUUGGACCUUGGUCGAUUUUAUACUAGCAAAAUGUCUUGUUUUAAUUUGUGUUUUUUUUGGGGGGCGGGGAGGGAGUGAACUUGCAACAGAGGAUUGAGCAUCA	4.04
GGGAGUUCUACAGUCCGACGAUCUCCCAGCACUCUGAUAAAAAGUGUGGACUGGUUGCUUGUAUUUUCCCUAUUCUUUUUAAUCAGUUUUAUUAUGUACGCUACCAUUCGAACUGAGAGUAUUCGGUGGCUGAUUCCGGGACACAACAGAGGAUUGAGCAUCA	0.505
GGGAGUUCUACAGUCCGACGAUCGCACAUGCCACUGUCACCAAAAACGAACUACCACUUUCCAAAUUCCAUUCAGAGCCAUUUUAGUGUUUUCCUAUUCCCUACCCCUCCCACUACUUUCAAUGAUGAAAUACCCUAAGUUCUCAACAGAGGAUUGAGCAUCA	2.48
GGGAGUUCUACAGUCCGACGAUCUUUCUUUUUUUGCACAUGACAGUGUUUGUAUUGAGGACCUUCUAAGGAAGAGGGGUGGUGUAGCAGUGGUGCCUGGGUGCCUGGCCUCCAGUGUCCCACCUCCUUCACCACCCCACUUGGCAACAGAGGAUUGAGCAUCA	0.178
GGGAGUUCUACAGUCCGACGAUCCUUCUACUUCAACUGGUCUUUUUAAGCCAUAGGAACCUUUUUUUUUUUUUUUUUUACAGUUUUAGUAUUUGAUUUUUACAUGGAAGACUAAACUCAUGCUUAGAGCUAAAUACGGUCUUUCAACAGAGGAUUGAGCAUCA	2.55
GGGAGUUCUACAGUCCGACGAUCCAUUUCGAAUCUUCAGAAAUUGUUCUGAGAUCCUCAAGUUCAUUUUAUAGGCUCAGACCAGAGGAUGUUGUUGCUGCAUUGUUUUGUUUUUUCAUUUGUGUACUGGGUCCAGAGUUGCAUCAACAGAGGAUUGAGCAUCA	0.401
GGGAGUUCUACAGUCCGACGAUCCAAGAGAAUAAUCCUGGCUGCUUUUGUGAGGCAAAGUGUCCCUUGGCACGUGGUCGGUAACAGAACCAUCAUGCCUAGGAAGUCAGUCUUUCAGUGUUCCAUUGCUUCUACACAUAAUCCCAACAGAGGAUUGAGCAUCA	0.209
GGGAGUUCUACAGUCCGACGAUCCCACGCUUUUAAAAGCCAUUUUGCCAGCAGCGGCAGCCCUGUUUGUGUAGUUCCUCUUAGGGCAAACCUUGUUGAGUCAUAAAUGUUGUAUUCAAGUUUCCAAGUGAUUGUGCAUUUUUACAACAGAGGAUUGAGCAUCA	0.301
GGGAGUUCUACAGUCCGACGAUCGAUUUUCAAUCUCUUCCCCCUUAUCUUGAUUUUUUAAAAGCCCUUCUCUUUUUUUUUUAGGCAUAUGUAGAAACAUUAGCAGAAAGAUUUAAUUUGGGCGACUUUGAUUCUUAAAGAGAACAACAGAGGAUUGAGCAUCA	0.425

Set 4
Target: Sal-like protein 4, full length isoform B (SALL4, Homo sapiens, UniProt Q9UJQ4-2, residues 1-616)
Method: universal PBM
Form: double-stranded DNA, one strand shown
Medium: in vitro
Concentration: not given
Setting: 8-mer, flanks averaged, mean of replicates
Reading: higher = stronger binding
Oligonucleotide	E-score
AGTTATTC	0.198
AGGAGGAG	-0.168
TCGGGGCA	-0.139
CGTGAGTC	-0.212
CCAATGGC	-0.16
TACCTACA	0.128
AAACTCAC	0.00256
ACGGATTA	0.197
AAAGAACT	0.0228
AGTGCTAT	0.107
GGTGTAAA	-0.0616
CCTGCTCA	-0.182
GTTAAGCA	0.00882
CGTAGCTA	-0.156
ACCGGCAG	-0.374
CGACCTAC	-0.296
ATGGCCTG	-0.182
CCACAGTC	-0.202
CTCGTGGC	-0.246
GAGCCCCA	-0.27
ACGTGTGC	-0.0526
CGTCGTCA	-0.0491
AGATACTG	0.12
CCCATGCC	-0.357
AGTTGCCG	-0.288

Further values, each from its own experiment
Oligonucleotide	target	method	form	quantity	result
GGAGTGCGCACTCC (dsDNA)	KAT6A 1-85 (Homo sapiens, UniProt Q92794)	ITC	double-stranded DNA, one strand shown	binding	binds

Some of these lines once more (set 1):
Oligonucleotide	normalised bound fraction [ratio]
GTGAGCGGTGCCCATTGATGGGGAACGTGTGCTAGCCTGTGAGTTTTTCTCTCCAACTAGCCTGGGTACTCAGGAAAGTGAGATCAACTTCTGGGTTTGGGTGTAGCGGCCTGACCTGTGCAAATAGGGGAGACAGTTGACATACAGATGAAAGGGGAGATGGGAAGCCATACAGAGGAAGGAGAAGATCAGGAACCAGAGATAAGATAATTCTGTAAATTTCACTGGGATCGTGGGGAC	0.263
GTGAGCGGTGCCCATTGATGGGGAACCTTGATAAGATTGAGCTTCCAGCAGAATGTAAATGCATCTGCTAACAGCAACCAGGCTTTGTCCCAAAACAGTAGTGAATCAGAATCTGCACAGTAATTTTTGCAGTTAATTTCCTCTCCTGTACTTATGACTCACAGGCCTTTCTTTACGTTCACAGTTTCATAGAAATTGGCAAATACTTCTTGACACTGATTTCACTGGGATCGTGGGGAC	-0.0236
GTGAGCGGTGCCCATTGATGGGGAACGGGTCCCGGGCGGCGGCAGGAATGCAGGAATGCGCACAGGCTGTGGGCGGCCAGGAGGGAGTCCCGGCGCCTGCCGGCGGAAGTGCCAGTCTTTGTGTACCCTGTCCAACACCTCCCCCCGCCAGCGCGGAAGGCCGGGCTACCTGCGCGCCTGGCAGCGCCTGGCAGCCGGCTGGGTGGGGCGCAGGGGAGCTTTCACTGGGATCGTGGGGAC	0.0187
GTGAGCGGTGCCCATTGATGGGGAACTGGCTGGCATCAAGGACTTTGGCTCTGGGGGTGTTCCCAGTCAACAGTTAACTAAAGACCAGGCCACTGTGCCTAGACTGTTTGTGCATTTGTGCAATCTATATGGGTTCATGCTGAACACCTGCGTTCCTTCTGAGAGTCTGAAAAGTTTAGAACATGCCAGGCAGAGGGTGTGTACCTGACCAACCCCCAATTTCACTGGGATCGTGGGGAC	0.00182
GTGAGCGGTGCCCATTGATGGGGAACAAGATATGATTATTATACGTGTGTCTGTTTTTATATAGAATTTGTTAGAAGTCTCTAGTACACCATACCAGAAAAAGTTTAGCTAAAACAAAGTAATCTTGAAATATTGCAAAGAAAACCAATAGAAACTTAACAGAATAAATAATATTTATTTTCCAGAATAAAGACACAATATAAGTGAAGCTTCAAATTTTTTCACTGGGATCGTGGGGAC	0.29
